Experimental data from different studies.
Parts stem from different laboratories: compare values within a part only.

Series 1
Target: Phosphate system positive regulatory protein PHO4, full length, GST-tagged (PHO4, Saccharomyces cerevisiae, UniProt P07270, residues 1-312)
Method: competition protein-binding microarray
Molecule type: double-stranded DNA, one strand shown
Sample: in vitro
Concentration: 2 µM
Notes: whole 60-bp probe, lowest competitor level
With: Cbf1 competitor, 0.05 µM
Reading: higher = stronger binding
Quantity: fluorescence intensity
Constant ends, left off below: … GTCTTGATTCGCTTGACGCTGCTG
Construct (chain): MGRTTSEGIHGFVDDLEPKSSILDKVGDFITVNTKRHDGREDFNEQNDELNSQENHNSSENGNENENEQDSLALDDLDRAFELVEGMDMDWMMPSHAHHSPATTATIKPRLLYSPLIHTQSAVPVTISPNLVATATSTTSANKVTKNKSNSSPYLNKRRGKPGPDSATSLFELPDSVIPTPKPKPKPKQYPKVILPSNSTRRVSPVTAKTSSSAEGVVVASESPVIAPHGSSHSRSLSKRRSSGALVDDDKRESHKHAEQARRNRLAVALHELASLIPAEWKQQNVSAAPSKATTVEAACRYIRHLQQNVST
CATACCCAACCTTATCACGTGTTTTAAGATATTTGT: 18500 a.u.
GGATACCTCCGCCGTCATATGATAATAATGTTCGTT: 3820 a.u.
ACAAAGGCACCAAGCGGCGTGGGACGCTTTCTTGTG: 7530 a.u.
CTAACGAAGGTTTGTCGGGTGGGTGACAAGCCAAGT: 3870 a.u.
ACCAAGCATCAACACCATGTGCATACCATACCGCTA: 10900 a.u.
AACTTTGAGCTTCCTCACGTGGAACATAAGATAGAT: 15900 a.u.
TGTTGCATACGTAAACATGTGTAGATTATTCTAAAT: 8790 a.u.
GTATCTCATCGCTGGCACGGGCAGTACAGTGCCCTG: 9690 a.u.
TGCGCAACAACTTGGGCTGTGGGTGTATGTCTAGAA: 4400 a.u.
CGTCCTAGTGATTGTGGGGTGGGTGCCATGAGGAAG: 6670 a.u.
ACAACAACATTATACAACGTGGTAACCAAATTTTTC: 12200 a.u.
TCACCCTCTCCGACTCACGTGGACCTTGGCGCGGCC: 15700 a.u.
GGTAACGAGATGGATCTCGTGAAGGATGATATCAAT: 4690 a.u.
CGTCCTAGTGATTGTCACCGGACTTCCATGAGGAAG: 4350 a.u.
CATACCCAACCTTTGCACGTGTTTTAAGATATTTGT: 22000 a.u.
TCAGGATCTGGCTGGCACATGATGCGGAAGCAGCGG: 8770 a.u.

Series 2
Target: Interferon regulatory factor 3, full length, phosphomimetic (IRF3, Homo sapiens, UniProt Q14653, residues 1-427, S386D/S396D/S398D/S402D/T404D/S405D)
Method: protein-binding microarray
Molecule type: double-stranded DNA, one strand shown
Sample: in vitro
Concentration: 2540 nM top
Notes: 60-bp whole probe
With: salmon DNA 0.4 mg/ml
Relative to: random background probes
Reading: higher = stronger binding
Quantity: fitted relative affinity
Constant ends, left off below: GCCTAGCAC … GTCTTGATTCGCTTGACGCTGCTG
Construct (chain): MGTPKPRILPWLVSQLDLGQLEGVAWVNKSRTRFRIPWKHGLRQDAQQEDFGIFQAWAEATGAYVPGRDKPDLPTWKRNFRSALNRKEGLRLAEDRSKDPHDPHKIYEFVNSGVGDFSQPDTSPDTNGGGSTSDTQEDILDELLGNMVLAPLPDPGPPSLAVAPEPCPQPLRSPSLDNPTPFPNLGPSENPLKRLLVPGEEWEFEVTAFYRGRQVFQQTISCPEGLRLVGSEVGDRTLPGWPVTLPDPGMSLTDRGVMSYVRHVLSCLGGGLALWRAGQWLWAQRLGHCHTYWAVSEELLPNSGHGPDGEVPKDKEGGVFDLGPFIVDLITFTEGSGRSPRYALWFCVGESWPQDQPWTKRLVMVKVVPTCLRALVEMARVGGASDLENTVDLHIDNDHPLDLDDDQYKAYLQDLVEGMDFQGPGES
TTAGGTATCGGACTAGGTTAGTGCTAG: 1.81 z-score
TTAGAACTGGGGTTTCGACTAGTGCTA: -0.132 z-score
TTAGATCTGGGGTATCGATTAGTGCTA: -0.343 z-score
GACGGAATGGGGTATCGGGACGTGCTA: -0.16 z-score
TTATGTTTCGGACTGGGTTAGTGCTAG: 3.23 z-score
GAGGGTTTCCTACTGCTGACGTGCTAG: 3.27 z-score
TTAGATAACGGGACTGGATTAGTGCTA: -0.547 z-score
GACGAACAGAGTCTCGAGACGTGCTAG: -0.363 z-score
TCAAATTTCCCTCTCCCACTGTGCTAG: 4.28 z-score
TCAAATATATATTCATAACTGTGCTAG: 0.368 z-score
GACGGTCTCCGTCTCGGGACGTGCTAG: 2.06 z-score
GACGGTAACGGTCTCGGGACGTGCTAG: 0.0775 z-score
GACGGTCTACTTTTCCTGACGTGCTAG: 0.884 z-score
GCCGGTATCGACTTTCGGGACGTGCTA: 1.81 z-score
TTAGGACTGGGGACTGGGTTCGTGCTA: -1.19 z-score
TTAGGTAGCGACTTTCGGTTAGTGCTA: 1.29 z-score
TGTTTTTGCTTTCTTTATGCGTGCTAG: 2.74 z-score

Series 3
Target: Hepatocyte nuclear factor 3-alpha (Foxa1, Mus musculus, UniProt P35582, residues 1-468, full length assumed)
Sequence of UniProt P35582 (whole entry, looked up): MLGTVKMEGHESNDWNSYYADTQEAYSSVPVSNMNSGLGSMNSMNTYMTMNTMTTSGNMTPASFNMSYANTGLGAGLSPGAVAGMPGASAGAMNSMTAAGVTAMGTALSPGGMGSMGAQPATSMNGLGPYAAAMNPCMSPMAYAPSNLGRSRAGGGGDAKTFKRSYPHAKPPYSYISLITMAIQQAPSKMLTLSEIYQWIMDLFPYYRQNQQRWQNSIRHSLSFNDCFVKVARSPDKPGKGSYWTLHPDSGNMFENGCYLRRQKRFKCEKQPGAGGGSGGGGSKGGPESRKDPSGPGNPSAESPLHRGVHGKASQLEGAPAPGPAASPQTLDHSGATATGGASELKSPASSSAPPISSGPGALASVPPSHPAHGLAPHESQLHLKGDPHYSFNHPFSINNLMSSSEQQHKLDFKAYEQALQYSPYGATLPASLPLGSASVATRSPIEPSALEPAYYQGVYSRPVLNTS
Method: EMSA with sequencing
Molecule type: double-stranded DNA, one strand shown
Sample: in vitro
Concentration: 10 and 20 nM
Notes: whole designed probe, mean of two concentrations, ends assumed
Relative to: negative control set to 0
Reading: higher = stronger binding
Quantity: normalised bound fraction
Constant ends, left off below: GTGAGCGGTGCCCATTGATGGGGAAC … TTTCACTGGGATCGTGGGGAC
TGATGAGAAACATGATAATTATTTAGTCTGAAAGGATCTTCTCCAATAATTTTTTTTTGTCGTGATTCTCCACCCCCACATTCCTGACTAAATGCAAACAAACCTAAATTGAGGGAAATTCTATGCAATACCTAACCATTATTCATCAAATGTACACAGGAGTACAGTGACACAATCATGGTTCACTGTAACC: 0.341 ratio
GTAAGGACCTCAATTTATTTTTTTCCCTAAGAGCTAATGAATTTTCCCAGTATCACCCACTGAGCCGTCCTCCCCTCTTTGTGATGCCACGTTTGTTTACCTTGTCCAGACTCATATGTTCTGCAACATTCAGCTATTTGTCAATTCTTATGCCAGTACTTCCACTGTTACCATCATCAATTTAAAGATTACT: 0.36 ratio
GCTCGAGGCTGGGCGGACAGCTCCCTTTCTCCCGGAGTTGACGTCTGATGTGGGTTATAAATCCCGCTGTGTAAACGTCTGTCCACTCACTGGGCAAACATTCCTACACCCGCCCTCCCCGGGGAGCTCCAGGGTGCAGGGCGTGGACCTGCCCAGCCCTTCAGGGCCAGAAGGCACGGTGGAGCCGGTCTGC: 0.205 ratio
ATCTTCCCCCTCTTCCTTGCCCCACCAGCTCACCTTCCCGGGTTATTTGCAGATAGGAAAATAAATAAAGCCGGCATTCGTTCCCTTATCACTGGCGCAAACTGCTGTTTGCTCTGGATGAATCATGGTCCTTTGGCGACGCCAGGCTCCGGGAGAGCAAAGCACCGTGTCAGGGCCATGATCCGGGGTGGCC: 0.366 ratio
CAATAAAACATTAAAAGATGCTGTTTCCCTATTTATGAAAGTGCTTTAAGTTTCTTAGTGTTGTGAAGGGATTTTTTTTTTTTTCGGACAAAGTAAACAGGGTTCTCAAGATCCATTTCTAAAATTTTATTTCAAGGAGGAGATGAGAAATGTATGCTTAAAGAAACTGCTGGACACTATTAAAACTGGGATG: 0.24 ratio
CTCATCTTAGATAGTAGAATCGCAGCATTTTTTTCTGCCGGTCTGAACTCAGGCACGCTATTTGTTCATCTACTTACTCAAACATGTATTGTGTGTTTACTCAGTGGCAGGCTCTGTCCTAGGTGCTGGGGATGGAGCAGTGCAGAGAGACAAAAACTCTGCTCTCATAAAGCTCACAATCTACAACCTGAGA: 0.456 ratio
GAAAAACTGTTAGGCCTCTACCACATGCAAGGAACTGTGCCAAGAATCAAGAGCGATAAAGACTCGTGGGTATTTGCTTGTCTGTGTTTCAAGTGTTTACACAGGGCCTGTATTTCCTGTAAGTCTCCGTCTCAGAACGTGTCAGAGAAGAATGGCTGAATGATATGCAGGAAACGTGCCATATGAACAGAGT: 0.403 ratio
TCTCATTAAAACTTGGCAAATCTTTGGATCTGCTTAGAGACACTGAATGTATATAGAAGAATAACTATTATTATTTATGCTTATAAAATGTTTGTTTACATTGTTTTTCTGCCTTTCTATAACCGTCCTGTTGTCTTGGTGACACTGGTCTATTCCAAAAGGTTTTGCCCAACTCATGTAACTAATAAAGCAG: 0.486 ratio

Series 4
Target: RNA binding protein fox-1 homolog 2, RRM domain, GST-SBP tag (RBFOX2, Homo sapiens, UniProt O43251-10, residues 100-194)
Method: RNA Bind-n-Seq
Molecule type: RNA
Sample: in vitro
Concentration: 365 nM
Notes: natural RNA segment, single round, ends assumed
Relative to: no-protein control
Reading: higher = stronger binding
Quantity: RBNS enrichment (R)
Constant ends, left off below: GGGAGUUCUACAGUCCGACGAUC … UGGAAUUCUCGGGUGCCAA
Construct (chain): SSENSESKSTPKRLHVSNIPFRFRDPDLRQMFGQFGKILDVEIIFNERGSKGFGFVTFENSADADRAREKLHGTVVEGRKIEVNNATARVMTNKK
AUUUACGCAUGAUAUUUUCCUAAGUAAAAUUGCCAAGUGGACUUGGAAGUCCAGAAAGGAAAAUAAUUUAAAUUAAUGCUGGUGAUCUUAACAAUAUUUUGUAAAAUGAU: 0.875
UACUCUGUUUUAACAUAUUCCUGGUGGACUAUAUCAACCUUUUGUGCCCUGAAAACUUGAAGGUUAACCCAAACUGUCAAGAUUUAGGAUAGUCAAGAAAAGGUUUAACU: 0.303
GAAAGUGCAGGCUUUGGGAGCAGGUGGCAGAGGGAGGAAGCAAAGAAAGAGCCAAAUAUGAUGAUCACAGCUUAUAGUAGCAGUAAAACUGUUUUCUUUCUUUUUUCCUG: 0.593
UAUUAAAGGAGCAAAAACCCACUCUAUUGGUCCAUUAGUUCCAGCAAGAGAAGUUAGAGGAGAAUUAAUAUAUUUCGUGCAAAAGUACUACAAACUUAAGUGUAUGUGCU: 0.36
AUGGCAGGUAGCUUCACUCAGUGAGUAGCAAGGGCACUCAGCUCUGAGGAUCUCAAUUCAUACAGGUGAAAAUCCUUAAAGGACUCUAUGAUUUAAACUCUGGAGUCAAA: 0.43
AUCCUGGGGGAUGGCCGUGCAUGGGGUGUACACUCGCUAUAGGCAUAGGCCCGGCAUGGCUGUCGCUGGACGCCAGCUGUGCACACCCAGCCACACCUGCUGCACGCCGC: 1.88
GAACAUAGUAUCAUGAAUGGAGUAGACAGGGAGGCUGCAGAAGCCAUUUCUCUUUGUAGAUAAAAAGCAUUAUCUAUGAUUGUUGUAUAAUAAAUUGAUUUUUACAUUAA: 0.485
ACCUGUUAGACAGUGGCAGAGAUAGGCCCAAGCUAAGUGGAGGCCAGGCCAGGCUGAGGGUGGGGCCCUCUGGGACCUAGUCCUCUAAGCUGUCUUUGUUAGAUACUGCU: 0.31
UGUUUGUGUCCUUUUACCCUAAAAUAUAUGAAGGCUUCCUUUUCAAGAUUUUUUUAUAAGAAGUUCCUACAGAAAGAAUAUUUGUGGGAAACCUCCCUUUCACUAACUUC: 0.525
ACAUGCAACCCAGUCCCCUCUGACGGCAGAAAUUUGUGACUGAGAUGUGACAUUUGGGAUUCCCCAUCACUUGUCAUGCCCUCAGCACCCAGCUUGUGCCAUUGGGCAUU: 1.05
AACCUCUUCACAACAGUAUCAACACUGGCUUCUCCCGGUUCAUUUUAUGCGUGCGAGAAGUCAGUGGUAACUGCUGCAGGGCUUAAUACAUUAGUGGUAACUGGUUUAAA: 0.278
UAUCUUUAAACACAAAAAACCCUGAAAUGUAUAUUUGGAUCGUUUUAAGGCAAUUGAAGACACGCAACCUCAGGUAUCCCGCUUUAUAUCGAUAGCUCCUCCCCCGGGAG: 0.434

For quick reference, copied from above (series 1):
CATACCCAACCTTTGCACGTGTTTTAAGATATTTGT: 22000 a.u.
TGCGCAACAACTTGGGCTGTGGGTGTATGTCTAGAA: 4400 a.u.
AACTTTGAGCTTCCTCACGTGGAACATAAGATAGAT: 15900 a.u.
CGTCCTAGTGATTGTCACCGGACTTCCATGAGGAAG: 4350 a.u.
CATACCCAACCTTATCACGTGTTTTAAGATATTTGT: 18500 a.u.
